Published values collected from several papers.
Each line is one published result; not all experiments were run side by side. Values joined by “and” are separate records of one study, mostly repeats; a detail may differ. Numbers after ± are the reported error.

For `CNS(=O)(=O)Nc1nccc(Cc2c(C)c3ccc(Oc4ncccc4F)cc3oc2=O)c1F`, the IC50 was 164 nM (SNU-213; cell viability, CellTiter-Glo; 7 days).
For `CN(C)c1ccc(-n2cc(COC(=O)[C@@]3(C)C=C(C(=O)OC(C)(C)C)C(=O)CC3)nn2)cc1`, the pRSK/tubulin ratio was 0.0823 (HeLa; quantitative western blot; concentration not given, 0 (unit not given), added: EGF).
For `CC[C@H](CO)Nc1nc(NCc2ccc(-c3ccccn3)cc2)c2ncn(C(C)C)c2n1`, “log2 fold change” read 1.07 (MOLT-4; tandem mass tag proteomics, item: IREB2; 1 µM, 1 h; baseline: DMSO).
`O=C(C[Se]C(=O)C12CC3CC(CC(C3)C1)C2)Nc1cccc(C(F)(F)F)c1` — result for “mean growth percent”: -53.2% (NCI60 ovarian subpanel; cell growth; 10 µM, 48 h, one-dose).
`COc1cc([C@@H]2O[C@@H](c3cc(OC)c(O[C@@H]4O[C@H](CO)[C@@H](O)[C@H](O)[C@H]4O)c(OC)c3)[C@H](CO)[C@H]2CO)cc(OC)c1O` — result for “lowest effective concentration”: 20 µM (PCS-210-010 human pre-adipocytes; lipid accumulation, inhibitor, Oil Red O staining; maturation stage).
Under “mean growth percent”, `O=C(C[Se]C(=O)c1cc2ccccc2o1)Nc1cccc(C(F)(F)F)c1` is recorded as -87.4% (NCI60 non-small-cell lung subpanel; cell growth; 10 µM, 48 h, one-dose).
Under “log2 fold change”, `CN1CCCNC(=O)c2cccc(c2)C(=O)NCCCN(C)CCCNc2cccc3c2C(=O)c2cccc(c2C3=O)NCCC1` is recorded as -0.803 (SAS; RNA-Seq, item: GNAI1 mRNA; 1 µM, 6 h; baseline: untreated cells).
`C1=[N+]2CCCC[N+]3=Cc4ccc5[n]4[Au-]23[n]2c1ccc2-c1nc2ccccc2nc1-5.F[P-](F)(F)(F)(F)F` has a TGI of 4.07 -log M (SF-295; NCI60 five-dose screen).
`Cc1ncsc1-c1ccc(C(C)NC(=O)C2CC(O)CN2C(=O)C(NC(=O)CCCCCCCCCCN2CCCC(Nc3ncc(Cl)c(Nc4ccccc4S(=O)(=O)C(C)C)n3)C2)C(C)(C)C)cc1` (centres unmarked) — result for “log2 fold change”: -1.02 (22Rv1; RNA-seq, item: LRIF1 mRNA; concentration not given; baseline: DMSO).
`O=C1C(Cl)=C(Cl)C(=O)c2c(O)ccc(O)c21` gave a selectivity index of 38.6 (MOLT-3; XTT; baseline: IC50 MRC-5 over IC50 MOLT-3).
`COc1ccccc1-c1ccncc1C(=O)Nc1nnc(OCc2ccc(Cl)cc2)s1` gave a colony count of 13.5 and 12 and 12.5 (MDA-MB-436 BRCA1-mutant; colony formation; 0.75 µM; higher = more survival).
The fold regulation of `CCN(CC)CC(=O)Nc1cccc(-n2cc(-c3ccc4ccc(-c5cn(-c6cccc(NC(=O)CN(CC)CC)c6)nn5)cc4c3)nn2)c1` is reported as 1.29 fold (RCC4; PCR angiogenesis array, item: TGFBR1; 5 x IC50, 2 h, normoxia; baseline: untreated).
`COC(=O)c1cc(NC2=NC(=O)C(=Cc3ccc(N(C)C)cc3)S2)ccc1OC(C)=O` has a metabolite level of -0.06 fold change (MCF7; GC-MS, item: 2-Butenedioic acid; 1 µM; baseline: DMSO).
For `COc1ccccc1[C@H](Cn1c(=O)n(C(C)(C)C(N)=O)c(=O)c2c(C)c(-c3ncco3)sc21)OC1CCOCC1`, the EC50 was 58 nM (NCI-H1355; cell proliferation, inhibitor; 168 h).
`CO[C@@H]1[C@@H](OC(N)=O)[C@@H](O)[C@H](Oc2ccc3c(O)c(NC(=O)c4ccc(O)c(CC=C(C)C)c4)c(=O)oc3c2C)OC1(C)C` gave a colony survival of 88.4% (HCT-116 BRCA2 wild-type; 50 µM, replicate A; baseline: untreated).
`CCCCCCc1cccc([C@H](O)C[C@H](CO)NC(=O)CCCCCCCCCCBr)c1` has a sphingomyelin level of 636000 pmol/sample and 645000 pmol/sample and 519000 pmol/sample (HeLa; CERT activity, HPLC-MS/MS lipidomics, item: sphingomyelin 16; 1 µM, 24 h, not cell-number normalised).
For `Cn1ncc2cc(-c3cncc(Cl)c3N3CCC4(CCNC4=O)CC3)ccc21`, “fold change in expression” read 2.17 (LS174T; microarray, item: AGT; concentration not given, 24 h; baseline: untreated cells).
With `O=C(Nc1nnc2c1c(-c1ccc(Cl)cc1)nc1sc(=Cc3ccco3)c(=O)n12)c1ccccc1` (mixture of isomers) the cell growth was 51% (SF-295; SRB; 10 µM, NCI60 single-dose screen; baseline: untreated).
`CC(=O)OC[C@H]1O[C@@H](n2cc(CSc3nc4ccccc4n3Cc3cn([C@@H]4O[C@H](COC(C)=O)[C@@H](OC(C)=O)C(OC(C)=O)[C@H]4OC(C)=O)nn3)nn2)[C@H](OC(C)=O)C(OC(C)=O)[C@@H]1OC(C)=O` (stereo in doubt) gave a cytotoxicity of 30.7% (HEK293; MTT; 31.3 ppm).
`O=C(C[Se]C(=O)c1cc2ccccc2[nH]1)Nc1cccc(C(F)(F)F)c1` has a GI50 of 1330 nM (NCI60 ovarian subpanel; cell growth, inhibitor; five-dose).
For `CCN(C(=O)c1cc(F)ccc1Oc1nncnc1N1CCC2(C1)CN([C@H](CCCN(C)CCOC)C(C)C)C2)C(C)C`, the GI50 was > 10000 nM (MT-3; cell growth or viability; 7 days).
`CC(C)Cc1ccc(C(C)C(=O)[Se]CC(=O)Nc2cccc(C(F)(F)F)c2)cc1` (centres unmarked): “mean growth percent” -85.7% (NCI60 ovarian subpanel; cell growth; 10 µM, 48 h, one-dose).
For `Cc1ccc([N+](=O)[O-])cc1S(=O)(=O)N(C)/N=C/c1cnc2ccc(Br)cn12`, the activation z-score was -3.53 (HuT78; Th1 pathway, NanoString IPA; 50 nM, 10 h; direction not given).
The growth percentage of `CCCC(CCC)C(=O)OCc1cn(-c2cc3ccccc3oc2=O)nn1` is reported as 92.5% (UACC-62; NCI60 single-dose screen; 10 µM).
With `COP(=O)(OC)OC[C@H]1OC(O)(COP(=O)(OC)OC)[C@@H](O)[C@@H]1O` (some centres unmarked) the cell proliferation was 83% and 53.7% and 70.1% (HepG2 sgCTRL; CCK-8; concentration not given; baseline: control).
The inhibition of `Cc1nc(=S)[nH]c(C)c1/N=N/c1nnc(S)s1` is reported as 11 ± 0.173% (Vero; cell viability, MTT; 0.625 µg/mL).
`COc1ccc(NC(=O)c2ccc3[nH]c(-c4ccc(N(C)C)cc4)nc3c2)cn1` — result for “dead cell to confluence ratio”: 65.4 and 2.4 and 12.1 (HCEC-hTERT; IncuCyte; concentration not given, 22 h).
For `O=C(C[Se]C(=O)c1ccccc1Nc1cccc(C(F)(F)F)c1)Nc1cccc(C(F)(F)F)c1`, the GI50 was 1890 nM (NCI60 ovarian subpanel; cell growth, inhibitor; five-dose).
`CC(C)c1ccc(N(C)c2ccc3c(c2)OCC[C@H]3CNc2cnccc2C(=O)O)cc1` gave an IC50 of ≥ 10000 nM (OS-RC-2; cell viability, CellTiter-Glo; 7 days).
With `O=C(C[Se]C(=O)c1cccnc1Nc1cccc(C(F)(F)F)c1)Nc1cccc(C(F)(F)F)c1` the GI50 was 1820 nM (NCI60 ovarian subpanel; cell growth, inhibitor; five-dose).
For `C=CC(=O)N1[C@H](c2ccc3c(c2)OCO3)c2[nH]c3ccccc3c2C[C@@H]1C(=O)NC`, the neuron degeneration was 76.6% and 77.1% (rat DRG neurons; 0.01372 µM, 48 h, added: vincristine 40 nM).
`N#Cc1cccc(/C=C/C(=O)c2ccc(O)cc2)c1` has a fold change of 0.056 (U-87 MG; item: CDCA7; concentration not given; baseline: untreated).

A few entries again:
`COc1ccc(NC(=O)c2ccc3[nH]c(-c4ccc(N(C)C)cc4)nc3c2)cn1` — result for “dead cell to confluence ratio”: 65.4 and 2.4 and 12.1 (HCEC-hTERT; IncuCyte; concentration not given, 22 h).
For `O=C(C[Se]C(=O)c1ccccc1Nc1cccc(C(F)(F)F)c1)Nc1cccc(C(F)(F)F)c1`, the GI50 was 1890 nM (NCI60 ovarian subpanel; cell growth, inhibitor; five-dose).
`CC(C)c1ccc(N(C)c2ccc3c(c2)OCC[C@H]3CNc2cnccc2C(=O)O)cc1` gave an IC50 of ≥ 10000 nM (OS-RC-2; cell viability, CellTiter-Glo; 7 days).
With `O=C(C[Se]C(=O)c1cccnc1Nc1cccc(C(F)(F)F)c1)Nc1cccc(C(F)(F)F)c1` the GI50 was 1820 nM (NCI60 ovarian subpanel; cell growth, inhibitor; five-dose).
For `C=CC(=O)N1[C@H](c2ccc3c(c2)OCO3)c2[nH]c3ccccc3c2C[C@@H]1C(=O)NC`, the neuron degeneration was 76.6% and 77.1% (rat DRG neurons; 0.01372 µM, 48 h, added: vincristine 40 nM).
